# Experimental data gathered from unrelated publications.
# A part holds a random share of what one study measured. Substitutions count along the parent as printed.

# Series 1
# Target: CCND2, cyclin fold, Cln2 fusion (human)
# Technique: yeast growth competition, sequencing
# Medium: yeast
# Setting: weak parent motif
# Baseline: not given
# Reading: higher = stronger binding
# Starting sequence: GMNC docking peptide (human); KNAKRNLSSEFAN; partner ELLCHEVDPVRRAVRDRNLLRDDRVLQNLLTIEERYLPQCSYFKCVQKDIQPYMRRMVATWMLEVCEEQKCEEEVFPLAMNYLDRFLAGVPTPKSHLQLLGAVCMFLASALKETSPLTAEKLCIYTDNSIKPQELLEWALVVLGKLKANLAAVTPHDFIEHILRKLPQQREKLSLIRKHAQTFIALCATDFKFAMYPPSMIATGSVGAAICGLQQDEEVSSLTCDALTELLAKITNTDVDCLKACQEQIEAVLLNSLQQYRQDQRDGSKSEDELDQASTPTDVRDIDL
Variant,normalised enrichment score
KNAKRNLSSEFLN [A12L],0.0521
KNSKRNLSSEFAN [A3S],0.177
KNAKRNFSSEFAN [L7F],-0.0226
KNAPRNLSSEFAN [K4P],0.385
KNAKRNLSGEFAN [S9G],0.294
KNAKRNPSSEFAN [L7P],0.0101
KVAKRNLSSEFAN [N2V],-0.0291
KNRKRNLSSEFAN [A3R],0.158
KNAKRNLSSEFVN [A12V],-0.0757
KNARRNLSSEFAN [K4R],0.439
KNAKRNLSDEFAN [S9D],0.366
KNAKRQLSSEFAN [N6Q],-0.12
KAAKRNLSSEFAN [N2A],0.187
KNAKRNLSQEFAN [S9Q],0.0753
KNAKFNLSSEFAN [R5F],0.0309
KNAKRNLSTEFAN [S9T],0.855
KNAKQNLSSEFAN [R5Q],0.132
KNAKRNCSSEFAN [L7C],-0.204
KNAKRNLSSEHAN [F11H],0.0755
KNAKRNLSSYFAN [E10Y],-0.871
KNAKRNLSSEFWN [A12W],0.181
KNAKRNLSSEFNN [A12N],0.319
KNAKRELSSEFAN [N6E],0.493
KNAKRNLSSEFSN [A12S],-0.0588

# Series 2
# Target: UBE2E2 UBC core domain (UniProt Q96LR5)
# UniProt Q96LR5, sequence (whole entry, looked up): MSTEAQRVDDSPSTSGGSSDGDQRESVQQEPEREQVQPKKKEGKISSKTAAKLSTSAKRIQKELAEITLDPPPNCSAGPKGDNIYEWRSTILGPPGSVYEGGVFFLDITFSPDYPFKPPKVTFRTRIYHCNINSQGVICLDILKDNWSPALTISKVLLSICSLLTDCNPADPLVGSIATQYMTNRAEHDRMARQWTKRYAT
# Technique: yeast two-hybrid
# Medium: yeast
# Setting: mostly zero background
# Baseline: not given
# Reading: higher = stronger interaction
# B1: TRIM5 RING domain (UniProt Q9C035); chain ILVNVKEEVTCPICLELLTQPLSLDCGHSFCQACLTANHKKSMLDKGESSCPVCRISYQPENIRP
# B2: RNF111 RING domain (UniProt Q6ZNA4); chain EGTEEDTEEKCTICLSILEEGEDVRRLPCMHLFHQVCVDQWLITNKKCPICRVDIEAQLPSE
# B3: TRIML1 RING domain (UniProt Q8N9V2); chain LMENLREELTCFICLDYFSSPVTTECGHSFCLVCLLRSWEEHNTPLSCPECWRTLEGPHFQS
# B4: MKRN1 RING domain (UniProt Q9UHC7); chain FAVQRSKDMVCGICMEVVYEKANPSERRFGILSNCNHTYCLKCIRKWRSAKQFESKIIKSCPECRITSNFVIPSE
# B5: TRIM5 RING domain (UniProt Q9C035); chain LREVKLSPEGQKVDHCARHGEKLLLFCQEDGKVICWLCERSQEHRGHHTFLTEEVAREYQVKL
# B6: VPS41 RING domain (UniProt P49754); chain KGVLVDEENICESCLSPILPSDAAKPFSVVVFHCRHMFHKECLPMPSMNSAAQFCNICSAKNRGPGSAI
# B7: TRIM4 RING domain (UniProt Q9C037); chain EAEDIQEELTCPICLDYFQDPVSIECGHNFCRGCLHRNWAPGGGPFPCPECRHPSAPAALRP
# B8: NEURL1 RING domain (UniProt O76050); chain VTPGLGQWSDECTICYEHAVDTVIYTCGHMCLCYACGLRLKKALHACCPICRRPIKDIIKT
# B9: TRIM40 RING domain (UniProt Q6P9F5); chain LQKDNQEEGVCPICQESLKEAVSTNCGHLFCRVCLTQHVEKASASGVFCCPLCRKPCSEEVLG
Molecule,lacZ reporter activity
B1 (TRIM5 RING domain),0
ASLPTSEEDLCPICYAHPISAVFQPCGHKSCKACINQHLMNNKDCFFCKTTIVSVEDWE (RNF123 RING domain (UniProt Q5XPI4)),0
B2 (RNF111 RING domain),0
B3 (TRIML1 RING domain),0
B4 (MKRN1 RING domain),0
B5 (TRIM5 RING domain),0
B6 (VPS41 RING domain),0
MPIRALCTICSDFFDHSRDVAAIHCGHTFHLQCLIQWFETAPSRTCPQCRIQVGKRTIIN (TRAIP RING domain (UniProt Q9BWF2)),0
B7 (TRIM4 RING domain),0
FQGDVDEDLICPICSGVLEEPVQAPHCEHAFCNACITQWFSQQQTCPVDRSVVTVAHLRP (RNF41 RING domain (UniProt Q9H4P4)),0
B8 (NEURL1 RING domain),0
GAAPGPEAAECLVCSELALLVLFSPCQHRTVCEECARRMKKCIRCQVVVSKKLRPD (MIB2 RING domain (UniProt Q96AX9)),0
B9 (TRIM40 RING domain),0

# Series 3
# Target: ABI1, truncated, D143A, DHFR fusion (Arabidopsis thaliana)
# Technique: DHFR PCA, deep sequencing
# Medium: yeast
# Setting: methotrexate growth selection, single substitutions
# Added: (+)-ABA 58 µM
# Baseline: wild-type fitted maximum
# Reading: higher = stronger binding
# Starting sequence: PYL1, truncated, DHFR fusion (Arabidopsis thaliana); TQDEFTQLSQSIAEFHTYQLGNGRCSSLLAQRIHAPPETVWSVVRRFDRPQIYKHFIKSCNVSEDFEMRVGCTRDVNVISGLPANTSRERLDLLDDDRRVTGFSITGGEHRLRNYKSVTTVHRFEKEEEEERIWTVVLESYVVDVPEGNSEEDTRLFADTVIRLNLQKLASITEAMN; partner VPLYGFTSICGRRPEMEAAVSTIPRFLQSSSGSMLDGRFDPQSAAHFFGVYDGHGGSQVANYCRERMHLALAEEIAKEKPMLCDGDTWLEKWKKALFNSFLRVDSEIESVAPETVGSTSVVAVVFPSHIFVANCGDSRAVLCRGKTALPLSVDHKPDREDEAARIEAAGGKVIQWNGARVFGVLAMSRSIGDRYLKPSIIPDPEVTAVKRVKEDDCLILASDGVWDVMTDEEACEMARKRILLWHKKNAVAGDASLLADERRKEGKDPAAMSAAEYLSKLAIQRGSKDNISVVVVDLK
Variant,relative binding score [%]
D159H,26.4
S9Y,67
R132H,96.5
N149M,21.7
E147A,81.9
S42Q,97.1
F103T,9.68
T86L,60.2
S104L,12.9
L138P,-14.4
E139H,68.6
R69A,82.7
L28Y,47

# Series 4
# Target: Histone acetyltransferase KAT6A, winged helix 2, GST fusion (KAT6A, Homo sapiens, UniProt Q92794, residues 85-181)
# Technique: protein binding microarray
# Form: double-stranded DNA, one strand shown
# Medium: in vitro
# Concentration: not given
# Setting: 8-mer, flanks averaged, mean of 2 arrays, mostly near background
# Baseline: not given
# Reading: higher = stronger binding
# Target sequence (chain): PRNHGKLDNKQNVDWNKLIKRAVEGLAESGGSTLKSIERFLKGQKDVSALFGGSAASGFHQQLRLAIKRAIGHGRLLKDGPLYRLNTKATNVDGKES
Oligonucleotide,E-score
CGCCGATA,0.0773
GATAGCGC,0.178
GTCTGGGA,-0.00957
CCCGGCGA,0.0362
AGGCCCCA,-0.107
GAACAGGA,0.0306
AGACGCGC,-0.0316
CATTAGGG,-0.111
CTTATATA,-0.115
ACTTCGAC,0.0838
GCCTGTAC,0.152
GCAGTGAA,0.0778
AACAATTA,-0.0756
AGCCTACA,-0.0063
CGCATAGC,0.0573
ACAATGTC,-0.0644

# Series 5
# Target: ATF2, bZIP domain (human)
# Technique: DHFR protein complementation
# Medium: yeast
# Setting: single substitutions, most at no-binding floor
# Baseline: wild-type JUN-FOS pair
# Reading: higher = stronger binding
# Starting sequence: JUN, bZIP domain (human); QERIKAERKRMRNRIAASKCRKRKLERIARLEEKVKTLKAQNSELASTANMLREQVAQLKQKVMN; partner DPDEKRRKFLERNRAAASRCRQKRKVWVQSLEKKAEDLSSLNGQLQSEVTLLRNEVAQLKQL
Variant,binding fitness [natural log]
V35Q,-1.54
M51L,-1.3
A49R,-1.26
L52A,-1.45
R53H,-1.47
M51S,-1.46
L38R,-1.43
A46Q,-1.33
A40N,-1.38
A29P,-1.37
N42K,-1.36
Q55T,-1.42
Q41T,-1.53
A46N,-1.41
R30M,-1.39
K34D,-1.19
S47A,-1.3
L52V,-1.49
K36E,-1.39
L59W,-1.43
A40W,-1.5
M51Q,-1.25

# Excerpt of the above (series 2):
Molecule,lacZ reporter activity
B6 (VPS41 RING domain),0
MPIRALCTICSDFFDHSRDVAAIHCGHTFHLQCLIQWFETAPSRTCPQCRIQVGKRTIIN (TRAIP RING domain (UniProt Q9BWF2)),0
B7 (TRIM4 RING domain),0
FQGDVDEDLICPICSGVLEEPVQAPHCEHAFCNACITQWFSQQQTCPVDRSVVTVAHLRP (RNF41 RING domain (UniProt Q9H4P4)),0
B8 (NEURL1 RING domain),0
GAAPGPEAAECLVCSELALLVLFSPCQHRTVCEECARRMKKCIRCQVVVSKKLRPD (MIB2 RING domain (UniProt Q96AX9)),0
B9 (TRIM40 RING domain),0
